Measured values from different studies.
Protocols differ between the studies behind these lines. ± gives the spread as reported.
Sequence of UniProt P11716 (whole entry, looked up): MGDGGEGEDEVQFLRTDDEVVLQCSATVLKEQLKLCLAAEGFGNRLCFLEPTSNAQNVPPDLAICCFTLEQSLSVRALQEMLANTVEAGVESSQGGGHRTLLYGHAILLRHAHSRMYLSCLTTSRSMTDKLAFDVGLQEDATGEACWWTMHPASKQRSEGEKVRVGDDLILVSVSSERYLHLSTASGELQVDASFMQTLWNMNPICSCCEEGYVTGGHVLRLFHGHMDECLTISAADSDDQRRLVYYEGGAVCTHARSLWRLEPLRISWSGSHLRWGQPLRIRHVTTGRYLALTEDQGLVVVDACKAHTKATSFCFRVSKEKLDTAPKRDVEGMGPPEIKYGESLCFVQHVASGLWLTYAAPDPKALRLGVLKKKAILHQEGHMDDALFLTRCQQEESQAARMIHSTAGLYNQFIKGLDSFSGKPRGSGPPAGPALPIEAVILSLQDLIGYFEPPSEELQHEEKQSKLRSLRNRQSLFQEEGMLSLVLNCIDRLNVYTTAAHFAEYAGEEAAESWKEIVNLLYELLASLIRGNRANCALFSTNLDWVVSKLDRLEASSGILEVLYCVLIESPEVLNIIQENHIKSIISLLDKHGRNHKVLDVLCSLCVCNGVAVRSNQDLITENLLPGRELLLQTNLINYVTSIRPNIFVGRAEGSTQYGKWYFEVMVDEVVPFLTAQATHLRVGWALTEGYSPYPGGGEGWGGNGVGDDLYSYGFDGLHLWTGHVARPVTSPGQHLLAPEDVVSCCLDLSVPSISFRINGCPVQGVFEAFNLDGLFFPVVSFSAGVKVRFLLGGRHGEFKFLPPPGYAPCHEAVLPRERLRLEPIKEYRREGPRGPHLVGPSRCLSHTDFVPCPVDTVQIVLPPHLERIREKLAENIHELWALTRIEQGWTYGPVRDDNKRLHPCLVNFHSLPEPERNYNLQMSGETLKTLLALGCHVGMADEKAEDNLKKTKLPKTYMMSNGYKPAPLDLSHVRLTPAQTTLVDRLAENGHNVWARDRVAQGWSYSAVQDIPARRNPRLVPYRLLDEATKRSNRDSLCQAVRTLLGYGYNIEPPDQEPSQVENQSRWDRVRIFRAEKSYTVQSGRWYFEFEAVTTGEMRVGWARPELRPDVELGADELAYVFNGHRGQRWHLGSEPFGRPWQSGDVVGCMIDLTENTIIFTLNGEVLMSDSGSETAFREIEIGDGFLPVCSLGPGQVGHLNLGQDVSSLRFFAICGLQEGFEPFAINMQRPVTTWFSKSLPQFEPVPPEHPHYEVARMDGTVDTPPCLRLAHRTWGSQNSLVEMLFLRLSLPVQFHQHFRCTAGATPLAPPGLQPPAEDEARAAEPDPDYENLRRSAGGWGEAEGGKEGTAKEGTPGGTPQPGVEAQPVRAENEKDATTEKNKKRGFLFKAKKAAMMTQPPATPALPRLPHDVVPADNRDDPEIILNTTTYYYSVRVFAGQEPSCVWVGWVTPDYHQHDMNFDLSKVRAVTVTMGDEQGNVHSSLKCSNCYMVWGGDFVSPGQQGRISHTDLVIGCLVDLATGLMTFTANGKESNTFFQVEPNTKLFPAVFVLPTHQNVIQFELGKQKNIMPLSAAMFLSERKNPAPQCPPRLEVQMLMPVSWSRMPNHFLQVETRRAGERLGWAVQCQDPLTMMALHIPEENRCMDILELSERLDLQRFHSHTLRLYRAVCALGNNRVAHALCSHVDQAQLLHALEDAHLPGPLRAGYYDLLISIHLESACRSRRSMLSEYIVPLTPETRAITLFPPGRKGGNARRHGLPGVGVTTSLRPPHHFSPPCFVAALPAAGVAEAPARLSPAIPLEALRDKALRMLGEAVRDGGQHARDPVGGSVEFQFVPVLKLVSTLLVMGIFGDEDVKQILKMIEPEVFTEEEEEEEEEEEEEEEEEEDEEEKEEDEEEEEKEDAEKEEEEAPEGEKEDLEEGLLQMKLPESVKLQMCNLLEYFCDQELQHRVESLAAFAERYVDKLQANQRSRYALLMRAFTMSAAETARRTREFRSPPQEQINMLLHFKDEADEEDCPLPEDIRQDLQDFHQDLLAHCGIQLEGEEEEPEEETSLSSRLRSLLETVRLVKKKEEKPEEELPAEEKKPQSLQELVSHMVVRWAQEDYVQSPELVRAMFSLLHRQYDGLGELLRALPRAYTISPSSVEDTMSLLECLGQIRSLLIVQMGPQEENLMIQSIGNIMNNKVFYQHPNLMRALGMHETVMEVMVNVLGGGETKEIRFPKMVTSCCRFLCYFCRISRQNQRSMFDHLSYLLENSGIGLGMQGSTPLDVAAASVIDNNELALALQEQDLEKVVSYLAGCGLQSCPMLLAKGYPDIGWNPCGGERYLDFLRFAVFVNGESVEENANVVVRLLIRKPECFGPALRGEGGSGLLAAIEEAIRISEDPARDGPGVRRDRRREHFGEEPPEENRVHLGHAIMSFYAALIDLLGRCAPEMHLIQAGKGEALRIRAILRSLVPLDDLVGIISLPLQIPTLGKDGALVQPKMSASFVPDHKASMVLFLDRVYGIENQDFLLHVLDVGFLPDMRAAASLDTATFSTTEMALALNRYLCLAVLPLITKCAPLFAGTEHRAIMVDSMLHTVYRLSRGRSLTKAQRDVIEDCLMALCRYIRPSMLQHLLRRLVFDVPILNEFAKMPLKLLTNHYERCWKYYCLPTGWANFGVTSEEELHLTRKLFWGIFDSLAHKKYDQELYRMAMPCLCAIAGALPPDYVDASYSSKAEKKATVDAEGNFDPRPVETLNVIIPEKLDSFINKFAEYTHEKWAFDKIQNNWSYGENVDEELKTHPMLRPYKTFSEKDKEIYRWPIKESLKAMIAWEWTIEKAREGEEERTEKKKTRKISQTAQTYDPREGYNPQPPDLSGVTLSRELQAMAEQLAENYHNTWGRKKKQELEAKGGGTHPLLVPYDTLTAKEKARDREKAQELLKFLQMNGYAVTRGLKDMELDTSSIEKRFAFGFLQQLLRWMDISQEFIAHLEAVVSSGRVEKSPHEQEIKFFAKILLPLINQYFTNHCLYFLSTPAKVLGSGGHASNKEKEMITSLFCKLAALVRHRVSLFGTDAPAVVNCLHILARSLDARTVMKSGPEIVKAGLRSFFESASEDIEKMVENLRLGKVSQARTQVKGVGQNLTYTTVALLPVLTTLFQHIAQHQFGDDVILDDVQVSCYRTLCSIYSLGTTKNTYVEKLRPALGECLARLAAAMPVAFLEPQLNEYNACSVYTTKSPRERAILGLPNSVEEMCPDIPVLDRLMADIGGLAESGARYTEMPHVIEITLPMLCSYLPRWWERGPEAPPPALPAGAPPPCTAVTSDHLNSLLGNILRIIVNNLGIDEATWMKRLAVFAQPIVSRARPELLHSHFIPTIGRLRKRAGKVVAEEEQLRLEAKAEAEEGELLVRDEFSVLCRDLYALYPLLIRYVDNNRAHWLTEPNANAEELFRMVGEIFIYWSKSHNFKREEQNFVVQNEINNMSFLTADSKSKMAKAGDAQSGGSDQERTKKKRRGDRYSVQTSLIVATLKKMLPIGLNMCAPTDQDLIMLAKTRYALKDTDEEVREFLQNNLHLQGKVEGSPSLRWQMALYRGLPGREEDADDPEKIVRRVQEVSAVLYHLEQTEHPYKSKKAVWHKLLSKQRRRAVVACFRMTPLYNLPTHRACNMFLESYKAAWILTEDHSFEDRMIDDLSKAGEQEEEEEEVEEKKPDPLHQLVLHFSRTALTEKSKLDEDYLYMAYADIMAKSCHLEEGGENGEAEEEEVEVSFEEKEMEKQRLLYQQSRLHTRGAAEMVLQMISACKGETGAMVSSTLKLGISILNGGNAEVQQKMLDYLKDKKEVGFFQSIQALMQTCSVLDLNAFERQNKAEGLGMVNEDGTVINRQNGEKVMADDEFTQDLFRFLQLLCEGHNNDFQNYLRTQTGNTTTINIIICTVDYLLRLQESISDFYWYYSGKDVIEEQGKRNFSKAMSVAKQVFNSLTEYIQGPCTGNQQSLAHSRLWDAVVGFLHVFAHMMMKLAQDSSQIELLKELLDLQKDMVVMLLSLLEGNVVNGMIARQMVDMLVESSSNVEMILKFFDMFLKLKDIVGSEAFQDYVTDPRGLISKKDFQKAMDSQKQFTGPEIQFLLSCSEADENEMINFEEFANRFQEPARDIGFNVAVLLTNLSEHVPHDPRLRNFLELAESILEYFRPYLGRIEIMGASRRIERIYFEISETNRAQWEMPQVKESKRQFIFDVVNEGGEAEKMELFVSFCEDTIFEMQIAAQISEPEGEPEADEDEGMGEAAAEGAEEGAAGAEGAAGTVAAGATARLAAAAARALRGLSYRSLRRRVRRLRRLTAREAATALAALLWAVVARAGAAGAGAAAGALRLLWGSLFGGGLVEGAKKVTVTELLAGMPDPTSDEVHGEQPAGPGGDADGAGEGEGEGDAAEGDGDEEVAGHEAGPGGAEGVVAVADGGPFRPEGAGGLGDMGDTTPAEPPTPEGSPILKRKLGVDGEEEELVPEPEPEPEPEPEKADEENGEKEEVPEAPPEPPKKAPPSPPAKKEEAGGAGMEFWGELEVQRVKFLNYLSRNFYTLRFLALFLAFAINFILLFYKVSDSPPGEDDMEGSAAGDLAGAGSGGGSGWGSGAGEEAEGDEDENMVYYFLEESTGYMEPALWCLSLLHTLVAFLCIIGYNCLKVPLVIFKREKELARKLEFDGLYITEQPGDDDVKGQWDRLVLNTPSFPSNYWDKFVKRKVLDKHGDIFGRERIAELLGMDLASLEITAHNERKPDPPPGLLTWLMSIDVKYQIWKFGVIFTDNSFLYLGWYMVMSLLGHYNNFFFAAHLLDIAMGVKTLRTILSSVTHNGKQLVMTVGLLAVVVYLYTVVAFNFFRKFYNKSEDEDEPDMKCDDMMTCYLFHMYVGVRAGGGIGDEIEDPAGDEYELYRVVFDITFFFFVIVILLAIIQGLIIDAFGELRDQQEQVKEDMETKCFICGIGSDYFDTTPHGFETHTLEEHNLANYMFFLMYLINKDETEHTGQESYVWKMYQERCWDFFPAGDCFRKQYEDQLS

Structure (SMILES) | target | assay | test system | setting | how to read | quantity | value
CC[C@H](C)[C@H](NC(=O)[C@H](CCCNC(=N)N)NC(=O)[C@H](CCCNC(=N)N)NC(=O)[C@H](CC(C)C)NC(=O)[C@H](Cc1ccccc1)NC(=O)CNC(=O)CNC(=O)[C@@H](N)Cc1ccc(O)cc1)C(=O)N[C@@H](CCCNC(=N)N)C(=O)N1CCC[C@H]1C(=O)N[C@@H](CCCCN)C(=O)N[C@@H](CC(C)C)C(=O)N[C@@H](CCCCN)C(N)=O | Oprk1 (Rattus norvegicus, UniProt P34975) | cAMP inhibition | CHO | unit not given, with: 50 µM forskolin | reference: dynorphin A(1-13) amide | efficacy | 1
NS(=O)(=O)c1ccc(NC(=O)c2ccccc2SSc2ccccc2C(=O)Nc2ccc(S(N)(=O)=O)cc2)cc1 | Gag-Pol polyprotein, integrase (gag-pol, Human immunodeficiency virus type 1 group M subtype B, UniProt P04585, C1427S) | DNA binding, fluorescence anisotropy | full-length integrase | compound:IN ratio 3:1, with: 10 mM Mg2+, U5 DNA | – | Hill coefficient | 1.47
CC[C@H](C)[C@H](NC(=O)[C@H](C)NC(=O)[C@@H](NC(=O)[C@H](CC(=O)O)NC(=O)[C@H](CCCCN)NC(=O)[C@H](CO)NC(=O)[C@@H](NC(=O)[C@H](CC(N)=O)NC(=O)[C@H](C)NC(=O)[C@@H](NC(=O)[C@H](CCC(=O)O)NC(=O)[C@H](CCCCN)NC(=O)[C@@H](NC(=O)[C@@H](NC(=O)[C@H](Cc1c[nH]cn1)NC(=O)[C@H](CCCCN)NC(=O)[C@@H](NC(=O)[C@H](CCCCN)NC(=O)[C@H](CCCCN)NC(=O)[C@@H](NC(=O)[C@H](CC(C)C)NC(=O)[C@H](CCCCN)NC(=O)[C@H](CC(N)=O)NC(=O)[C@H](Cc1ccccc1)NC(=O)[C@H](CCCNC(=N)N)NC(=O)[C@H](CCCCN)NC(=O)[C@H](CCCNC(=N)N)NC(=O)[C@H](Cc1ccccc1)NC(=O)CN)C(C)C)C(C)C)[C@@H](C)O)[C@@H](C)CC)[C@@H](C)O)C(C)C)C(C)C)C(=O)N[C@H](C(=O)N[C@@H](C)C(=O)NCC(=O)N[C@@H](CO)C(=O)NCC(=O)N[C@H](C(=O)N[C@@H](C)C(=O)N[C@H](C(=O)NCC(=O)N[C@@H](C)C(=O)N[C@@H](C)C(=O)N[C@@H](CCSC)C(N)=O)C(C)C)C(C)C)C(C)C | CHRM3 (Homo sapiens, UniProt P20309) | antagonist, CEREP off-target panel | – | 10 µM | – | inhibition | 44%
C[C@H](Nc1ncnc(N)c1C#N)c1c(-c2ccccc2)[nH]c2c(Cl)cccc2c1=O | PIK3CA (Homo sapiens, UniProt P42336) | enzyme activity | – | – | reference: IC50 PIK3CA over PI3Kδ | selectivity ratio | 306
CC[C@H](C)[C@H](NC(=O)[C@H](CCCN)NC(=O)[C@H](CC(=O)O)NC(=O)[C@H](CC(C)C)NC(=O)C(C)(CC(C)C)NC(=O)[C@@H](NC(=O)[C@H](CO)NC(=O)[C@H](Cc1ccc(O)cc1)NC(=O)[C@H](CC(=O)O)NC(=O)[C@H](CO)NC(=O)[C@@H](NC(=O)[C@H](Cc1ccccc1)NC(=O)[C@@H](NC(=O)CNC(=O)[C@H](CCC(=O)O)NC(=O)C(C)(C)NC(=O)[C@@H](N)Cc1ccc(O)cc1)[C@@H](C)O)[C@@H](C)CC)[C@@H](C)CC)C(=O)N[C@@H](Cc1c[nH]cn1)C(=O)N[C@@H](CCC(N)=O)C(=O)NC(C)(C)C(=O)N[C@@H](CC(=O)O)C(=O)N[C@@H](Cc1ccccc1)C(=O)N[C@H](C(=O)N[C@@H](CCC(=O)O)C(=O)N[C@@H](Cc1ccc(O)cc1)C(=O)N[C@@H](CCCCNC(=O)COCCOCCNC(=O)COCCOCCNC(=O)CC[C@H](NC(=O)CCCCCCCCCCCCCCCCCCC(=O)O)C(=O)O)C(=O)N[C@@H](CC(C)C)C(=O)N[C@@H](CCC(=O)O)C(=O)NCC(=O)NCC(=O)N1CCC[C@H]1C(=O)N[C@@H](CO)C(=O)N[C@@H](CO)C(=O)NCC(=O)N[C@@H](C)C(=O)N1CCC[C@H]1C(=O)N1CCC[C@H]1C(=O)N1CCC[C@H]1C(=O)N[C@@H](CO)C(N)=O)C(C)C (stereo partly drawn) | Glucagon receptor (GCGR, Homo sapiens, UniProt P47871) | cAMP accumulation, agonist | HEK293 | 9.95 µM | – | stimulation | 0.7 ± 0.9%
CC(C)C[C@@H]1NC(=O)[C@@H](NC(=O)[C@H](CC(=O)O)NC(=O)[C@H](C)N)CSSC[C@@H]2NC(=O)[C@@H]3CSSC[C@@H](C(=O)N[C@@H](CCCNC(=N)N)C(=O)O)NC(=O)[C@H](CCCNC(=N)N)NC(=O)[C@H](CCC(N)=O)NC(=O)[C@H](CCC(=O)O)NC(=O)[C@@H]4CCCN4C(=O)[C@H](CC(N)=O)NC(=O)[C@H]([C@@H](C)O)NC(=O)CNC(=O)[C@H](CCCNC(=N)N)NC(=O)[C@H](CCCNC(=N)N)NC(=O)[C@H](CO)NC(=O)[C@H](CSSC[C@H](NC(=O)[C@H](CC(C)C)NC(=O)[C@H](CCCCN)NC(=O)[C@H](CC(C)C)NC(=O)[C@H](Cc4c[nH]cn4)NC(=O)[C@H](C)NC1=O)C(=O)N[C@@H](CCCCN)C(=O)N[C@@H](CCCCN)C(=O)N[C@@H](CC(N)=O)C(=O)N[C@@H](CCCCN)C(=O)N[C@@H](CC(=O)O)C(=O)N3)NC(=O)[C@H](CCCCN)NC(=O)[C@H](CCCCN)NC(=O)[C@H](CO)NC2=O | RYR1 (Oryctolagus cuniculus, UniProt P11716) | activator | – | 100 nM, 120 min, pH 7.2, 36 °C, pCa 8 | reference: control at pCa 5 | specific [3H]ryanodine binding | 23.4 ± 5.6%
CC[C@H](C)[C@@H]1NC(=O)[C@H](CCCNC(=N)N)NC(=O)[C@H](CC(=O)O)NC(=O)[C@H]([C@@H](C)CC)NC(=O)[C@H](CCCNC(=N)N)NC(=O)CNC(=O)CNC(=O)[C@H](Cc2ccccc2)NC(=O)[C@@H](NC(=O)[C@H](CO)NC(=O)[C@H](CO)NC(=O)[C@H](CCCNC(=N)N)NC(=O)CN2CCN(CC(=O)O)CCN(CC(=O)O)CCN(CC(=O)O)CC2)CSSC[C@@H](C(N)=O)NC(=O)[C@H](C)NC(=O)CNC1=O [copper-64 labelled] | Atrial natriuretic peptide receptor 3 (Mus musculus, UniProt P70180) | PET/CT | C57BL/6 mice hind limb ischemia, nonischemic limb | iv, day 7 after surgery | – | tracer uptake | 0.77 ± 0.03 %ID/g
CC[C@H](C)[C@H](N)C(=O)N[C@@H](CC(N)=O)C(=O)N[C@@H](CC(N)=O)C(=O)N[C@H](C(=O)N1C[C@@H](n2cc([C]34[CH]5[CH]6[CH]7[CH]3[Fe]6754389%10[CH]4[CH]3[CH]8[CH]9[CH]4%10)nn2)C[C@H]1C(=O)N[C@@H](Cc1cn(C)c2ccccc12)C(N)=O)[C@@H](C)CC (stereo partly drawn) | Envelope glycoprotein gp160, gp120 (env, Human immunodeficiency virus type 1 group M subtype B, UniProt P35961, T253A) | ITC | – | concentration not given, gp120 T257A mutant | – | binding stoichiometry | 1.15
CCCCCCCCCCCCCCCC(=O)N[C@@H](CCC(=O)NCCCC[C@H](NC(=O)[C@H](CO)NC(=O)[C@@H]1CCCN1C(=O)[C@@H]1CCCN1C(=O)[C@@H]1CCCN1C(=O)[C@H](C)NC(=O)CNC(=O)[C@H](CO)NC(=O)[C@H](CO)NC(=O)[C@@H]1CCCN1C(=O)CNC(=O)CNC(=O)[C@H](C)NC(=O)[C@H](CC(C)C)NC(=O)[C@H](CC(C)C)NC(=O)[C@H](Cc1c[nH]c2ccccc12)NC(=O)[C@H](CC(N)=O)NC(=O)[C@@H](NC(=O)[C@H](Cc1ccccc1)NC(=O)[C@H](CCC(=O)O)NC(=O)C(C)(C)NC(=O)[C@H](C)NC(=O)[C@H](C)NC(=O)[C@H](CCC(N)=O)NC(=O)[C@H](CCCCN)NC(=O)[C@H](CC(=O)O)NC(=O)[C@H](CC(C)C)NC(=O)[C@H](Cc1ccc(O)cc1)NC(=O)[C@@H](NC(=O)[C@H](CO)NC(=O)[C@H](Cc1ccc(O)cc1)NC(=O)[C@H](CC(=O)O)NC(=O)[C@H](CO)NC(=O)[C@@H](NC(=O)[C@H](Cc1ccccc1)NC(=O)[C@@H](NC(=O)CNC(=O)[C@H](CCC(=O)O)NC(=O)CSCC(=O)NCCN1C(=O)CSC1=O)[C@@H](C)O)[C@@H](C)O)[C@@H](C)CC)C(C)C)C(N)=O)C(=O)O | GIPR (Homo sapiens, UniProt P48546) | cAMP, agonist | – | – | – | Emax | 35%
CC[C@H](C)[C@H](N)C(=O)N[C@@H](CO)C(=O)N[C@@H](Cc1ccccc1)C(=O)N[C@@H]1CSCc2ccc(cc2)-c2ccc(cc2)CSC[C@@H](C(=O)N[C@@H](CCC(=O)O)C(=O)N[C@@H](CO)C(=O)NCC(=O)N[C@@H](CO)C(N)=O)NC(=O)[C@H](Cc2ccc(O)cc2)NC(=O)[C@H](Cc2ccc(O)cc2)NC(=O)[C@H](CC(=O)O)NC(=O)[C@H](CC(C)C)NC(=O)[C@H](CC(C)C)NC(=O)[C@H](CCC(=O)O)NC1=O | env (Human immunodeficiency virus type 1 group M subtype B, UniProt P35961) | binding, SPR | – | – | – | kon | 744 M⁻¹ s⁻¹
Cc1cc(O)cc(C)c1C[C@H](N)C(=O)NCC(=O)NCC(=O)N[C@@H](Cc1ccccc1)C(=O)N[C@H](C(=O)NCC(=O)N[C@@H](C)C(=O)N[C@@H](CCCNC(=N)N)C(=O)N[C@@H](CCCCN)C(=O)N[C@@H](CO)C(=O)N[C@@H](C)C(=O)N[C@@H](CCCNC(=N)N)C(=O)N[C@@H](CCCCN)C(N)=O)[C@@H](C)O | OPRK1 (Homo sapiens, UniProt P41145) | calcium mobilization, agonist | CHO cells expressing Gαqi5 chimera | – | reference: basal | Emax | 191 ± 26%
C[Si](C)(C)C[C@H](CN)CC(=O)O | TRPV1 (Homo sapiens, UniProt Q8NER1) | ligand displacement, radioligand | – | 250 µM | – | inhibition | 11%

Excerpt of the above:
Structure (SMILES) | target | assay | test system | setting | how to read | quantity | value
CC[C@H](C)[C@H](N)C(=O)N[C@@H](CC(N)=O)C(=O)N[C@@H](CC(N)=O)C(=O)N[C@H](C(=O)N1C[C@@H](n2cc([C]34[CH]5[CH]6[CH]7[CH]3[Fe]6754389%10[CH]4[CH]3[CH]8[CH]9[CH]4%10)nn2)C[C@H]1C(=O)N[C@@H](Cc1cn(C)c2ccccc12)C(N)=O)[C@@H](C)CC (stereo partly drawn) | Envelope glycoprotein gp160, gp120 (env, Human immunodeficiency virus type 1 group M subtype B, UniProt P35961, T253A) | ITC | – | concentration not given, gp120 T257A mutant | – | binding stoichiometry | 1.15
